Measurements of several laboratories.
Every numbered part comes from another study and shows a few of its results, in no order. Changes are numbered by the printed parent chain.

Block 1
Target: Histone acetyltransferase KAT6A, winged helix 2, GST fusion (KAT6A, Homo sapiens, UniProt Q92794, residues 85-181)
Method: protein binding microarray
Form: double-stranded DNA, one strand shown
Matrix: in vitro
Tested at: not given
Setting: 8-mer, flanks averaged, mean of 2 arrays, mostly near background
Relative to: not given
Direction: higher = stronger binding
Target sequence (chain): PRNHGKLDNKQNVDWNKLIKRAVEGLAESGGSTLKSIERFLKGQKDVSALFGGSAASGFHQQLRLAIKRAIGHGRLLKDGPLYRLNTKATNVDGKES
`GATAGGCC` gave an E-score of -0.129.
`ATTACGCA` gave an E-score of -0.0325.
`GCCCCGAC` has an E-score of 0.132.
The E-score of `ACATTAAA` is reported as -0.00417.
`AGTGGCCG` gave an E-score of 0.109.
The E-score of `ACCTTACA` is reported as -0.0634.
`GTTTAAAA` gave an E-score of 0.0328.
`AGGTCTAT` gave an E-score of -0.171.
`AGAGAAAC` has an E-score of 0.0495.
With `AATGGCAT` the E-score was 0.14.
The E-score of `ATGCTCGG` is reported as 0.196.
`GTACAGCA` has an E-score of 0.108.
`GGCCTCAA` has an E-score of 0.205.
`CGTTATAA` has an E-score of -0.00169.
`ATGGGGTA` has an E-score of -0.0657.
With `CGAATTCA` the E-score was 0.168.
`AAGCCCAG` has an E-score of 0.0246.
`GTGCACGA` gave an E-score of -0.0868.
`AACCTAAA` has an E-score of 0.0552.
`AGTGAGAT` gave an E-score of 0.0245.
`CGACGAGC` gave an E-score of 0.0501.
`CACAAAGC` gave an E-score of 0.146.
For `CAGCAGCA`, the E-score was 0.0724.
With `AGAGGCGC` the E-score was -0.0634.

Block 2
Target: Fragile X messenger ribonucleoprotein 1, C-terminal low-complexity region (Fmr1, Mus musculus, UniProt P35922)
Method: RNA Bind-n-Seq
Form: RNA
Matrix: in vitro
Tested at: 200 nM
Setting: whole 134-nt RNA, ends assumed
With: 150 mM LiCl
Relative to: input library
Direction: higher = stronger binding
Library: 7-deaza-guanosine replaces G
Shared flanks, not repeated: GGGAGUUCUACAGUCCGACGAUC … UGGAAUUCUCGGGUGUCAAGG
With `CUGUGCUACACAUCGUAUGUACCGAAUCGGGGAAAAAAAGGAAAAAAAGGGGAAAAAAAGGAAAGUAUUAUGUUACGCCGUUCGGAUCUG` the log2 enrichment was 0.0948.
The log2 enrichment of `CAAGUCCUGUGCUACACAUCGUAUGUACCGAAUCGGGUGGGUGGGAAAAAAAGGGAAAGUAUUAUGUUACGCCGUUCGGAUCUGCACUUC` is reported as -0.28.
With `GCAGGAAGUAAAAACAAAUGUAAAUGCUUCGGAUAGUGGCAGGGGUGGGGGUUGCUAAGGAAAGGGUGGGAUGGGAGUGGGUAAAGAGUU` the log2 enrichment was 1.44.
For `CCUGUGCUACACAUCGUAUGUACCGAAUCGGGGCCCCCCGGGCCCCCCGGGCCCCCCGGGAAAGUAUUAUGUUACGCCGUUCGGAUCUGC`, the log2 enrichment was -2.07.
The log2 enrichment of `AGUCCUGUGCUACACAUCGUAUGUACCGAAUCGGAAAAAGGGAAAAAGGAAAAAGGGAAAGUAUUAUGUUACGCCGUUCGGAUCUGCACU` is reported as -1.47.
`AAGUCCUGUGCUACACAUCGUAUGUACCGAAUCGGGGUUUUUGGGGUGGGGUGGGGAAAGUAUUAUGUUACGCCGUUCGGAUCUGCACUU` has a log2 enrichment of -1.1.
For `UCCUCAAGUCCUGUGCUACACAUCGUAUGUACCGAAUCGGGUGGUGGGUGGAAAGUAUUAUGUUACGCCGUUCGGAUCUGCACUUCCAGC`, the log2 enrichment was 0.176.
With `UCCUGUGCUACACAUCGUAUGUACCGAAUCGGGGUGGGGAAAAAGGGGUUUUUUUGGGGAAAGUAUUAUGUUACGCCGUUCGGAUCUGCA` the log2 enrichment was -0.674.

Block 3
Target: Interferon regulatory factor 5, full length, phosphomimetic (IRF5, Homo sapiens, UniProt Q13568-2, residues 1-514, S451D/S453D/S456D/S462D)
Method: protein-binding microarray
Form: double-stranded DNA, one strand shown
Matrix: in vitro
Tested at: 940 nM top
Setting: 60-bp whole probe
With: salmon DNA 0.4 mg/ml
Relative to: random background probes
Direction: higher = stronger binding
Shared flanks, not repeated: GCCTAGCAC … GTCTTGATTCGCTTGACGCTGCTG
`ATGAGACTGTCACATCCCTGGTGCTAG`: “fitted relative affinity” 0.119 z-score.
`TTTCAGCTGTTTTTCTCACCGTGCTAG` — result for “fitted relative affinity”: 4.1 z-score.
Under “fitted relative affinity”, `TTTTTTCTTTTATTAGTGACGTGCTAG` is recorded as 1.63 z-score.
`TTAGGTCTCGGTATCGTTTAGTGCTAG` — result for “fitted relative affinity”: 6.01 z-score.
`GCTGGTCACTCTCTGGGCTGGTGCTAG` — result for “fitted relative affinity”: 0.123 z-score.
`GACGGCCTGGGGTTTCGGGACGTGCTA`: “fitted relative affinity” 1.61 z-score.
`CTCTGCTTGTATCTGGGTTCGTGCTAG`: “fitted relative affinity” 0.259 z-score.
For `TTGAGTCTTCTCCTCTAGGTGTGCTAG`, “fitted relative affinity” read -0.0805 z-score.
Under “fitted relative affinity”, `TCATTTTCATGCTCTTATACTGTGCTA` is recorded as 1.55 z-score.
For `TTAGGTTCCGGATTCGGTTAGTGCTAG`, “fitted relative affinity” read 1.51 z-score.
`TTAGGTATCCACTTTCGGTTAGTGCTA` — result for “fitted relative affinity”: 3.99 z-score.
Under “fitted relative affinity”, `TCAATACTCGTTTACATACTGTGCTAG` is recorded as 0.421 z-score.
Under “fitted relative affinity”, `TCAAGTTTTCATTTTCTACTGTGCTAG` is recorded as 1.41 z-score.
`ACCCTGCCTAAAGCTAGTTTGTGCTAG`: “fitted relative affinity” 0.0277 z-score.
`GACGGCTTCGGTTCCGGGACGTGCTAG` — result for “fitted relative affinity”: -0.106 z-score.
Under “fitted relative affinity”, `GATCCTTCCCCTCTAGGTTCGTGCTAG` is recorded as 0.968 z-score.
For `GTGTTTGTCCCTATTTAAGAGTGCTAG`, “fitted relative affinity” read 1.16 z-score.
`TTAGAACTTAGTATCGATTAGTGCTAG` — result for “fitted relative affinity”: 6.08 z-score.
Under “fitted relative affinity”, `GACGGTATCGGTATCGAGACGTGCTAG` is recorded as 8.45 z-score.

Block 4
Target: CCND3, cyclin fold, Cln2 fusion (human)
Method: yeast growth competition, sequencing
Matrix: yeast
Setting: weak parent motif
Relative to: not given
Direction: higher = stronger binding
Parent: TICRR docking peptide (human); TKVRRNLFNQELL
`V3A`: “normalised enrichment score” -0.0278.
For `L13A`, “normalised enrichment score” read 0.118.
For `N9A`, “normalised enrichment score” read 0.139.
`R5K F8L`: “normalised enrichment score” 0.489.
`R5A` — result for “normalised enrichment score”: 0.177.
`L12A`: “normalised enrichment score” 0.0448.
Under “normalised enrichment score”, `T1A` is recorded as 0.17.

Block 5
Target: ABI1, truncated, D143A, DHFR fusion (Arabidopsis thaliana)
Method: DHFR PCA, deep sequencing
Matrix: yeast
Setting: methotrexate growth selection, single substitutions
With: (+)-ABA 0.0091 µM
Relative to: wild-type fitted maximum
Direction: higher = stronger binding
Parent: PYL1, truncated, DHFR fusion (Arabidopsis thaliana); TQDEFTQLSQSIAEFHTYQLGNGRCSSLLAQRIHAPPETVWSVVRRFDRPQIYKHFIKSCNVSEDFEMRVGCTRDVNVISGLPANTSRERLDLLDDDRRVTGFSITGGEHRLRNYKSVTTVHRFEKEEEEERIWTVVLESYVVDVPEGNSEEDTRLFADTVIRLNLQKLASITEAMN
`Q51A` — result for “relative binding score”: -2.1%.
`R74W`: “relative binding score” -2.07%.
Under “relative binding score”, `T135S` is recorded as 6.34%.
Under “relative binding score”, `F5T` is recorded as 0.54%.
For `L112T`, “relative binding score” read 0.0972%.
`C72Q` — result for “relative binding score”: 32%.
For `V142D`, “relative binding score” read 6.06%.
Under “relative binding score”, `H110K` is recorded as 24.2%.
For `E152D`, “relative binding score” read 14.3%.
`E14I`: “relative binding score” -4.34%.
Under “relative binding score”, `K54M` is recorded as -3.85%.
Under “relative binding score”, `D92K` is recorded as -1.76%.
`N114M` — result for “relative binding score”: 1.09%.
`H34R` — result for “relative binding score”: 27.8%.
Under “relative binding score”, `T154K` is recorded as 3.62%.

Mixed results
The fold induction of `PhoQ, residues 284 288 289 292 302 303 SLKLQV` is reported as 6.45 (PhoP, residues 12 14 15 18 19 VHSCL (Escherichia coli, UniProt P23836); Sort-seq, measured: YFP reporter; E. coli; PhoQ-PhoP variant library, with: 10 µM Mg2+; relative to: high Mg2+ state, higher = stronger signaling).

Repeated from above (block 5):
`N114M` — result for “relative binding score”: 1.09%.
`R74W`: “relative binding score” -2.07%.
For `L112T`, “relative binding score” read 0.0972%.
Under “relative binding score”, `T135S` is recorded as 6.34%.
`C72Q` — result for “relative binding score”: 32%.
For `E152D`, “relative binding score” read 14.3%.
Under “relative binding score”, `H110K` is recorded as 24.2%.
